Published values pooled from the literature.
Compare with care: the assays were run in different laboratories. ± gives the spread as reported.
UniProt P10632, sequence (whole entry, looked up): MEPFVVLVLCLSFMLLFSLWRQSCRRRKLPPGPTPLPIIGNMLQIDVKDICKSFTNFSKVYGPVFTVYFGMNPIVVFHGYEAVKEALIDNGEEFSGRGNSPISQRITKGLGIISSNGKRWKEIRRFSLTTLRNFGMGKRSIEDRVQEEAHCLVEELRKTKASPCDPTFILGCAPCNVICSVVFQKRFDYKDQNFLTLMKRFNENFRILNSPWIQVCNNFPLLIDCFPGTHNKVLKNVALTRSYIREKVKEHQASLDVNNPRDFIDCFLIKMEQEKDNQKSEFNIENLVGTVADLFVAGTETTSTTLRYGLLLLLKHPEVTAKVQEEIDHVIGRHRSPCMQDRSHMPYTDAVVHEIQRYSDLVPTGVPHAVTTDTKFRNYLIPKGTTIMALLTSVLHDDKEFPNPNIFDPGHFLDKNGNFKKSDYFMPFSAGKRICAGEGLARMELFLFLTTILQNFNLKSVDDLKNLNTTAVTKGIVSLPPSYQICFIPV

Structure (SMILES) = CC1(C)CCC2=C(O1)c1ccccc1C(=O)C2=O; tested on = Toxoplasma gondii; test = parasite growth; system = HFF, bradyzoite, alkaline-induced; measurement = EC50; result = 11.9 µM
Structure (SMILES) = Cn1c(C(F)(F)F)cc(=O)n(-c2cc(Oc3cccnc3OCC(=O)O)c(Cl)cc2F)c1=O; system = beagle dog, male, plasma; conditions = oral capsule, 1000 mg/kg/day epyrifenacil, day 1, 90-day study; measurement = Cmax; result = 13.6 µg/mL
Structure (SMILES) = CCCCC1=NC2(CCCC2)C(=O)N1Cc1ccc(-c2ccccc2S(=O)(=O)Nc2noc(C)c2C)c(COCC)c1; system = healthy adult volunteers, plasma; conditions = oral, 1600 mg, single dose, fasted, crushed tablet; measurement = Cmax; result = 12.3 µg/mL
Structure (SMILES) = Cl.[2H]C([2H])([2H])CC(=O)c1cnc(NC(=O)C2CC2)cc1Nc1cccc(-c2ncn(C([2H])([2H])[2H])n2)c1OC; test = geometric mean; system = human; conditions = oral, 25 mg single dose, fasted, liquid; measurement = Cmax; result = 0.253 µg/mL
Structure (SMILES) = Cn1cc(-c2ccc(-c3cncc(Cl)c3N3CCC4(CCNC4=O)CC3)cc2)cn1; tested on = COLO 205; test = gene expression, microarray, measured: CARD6 mRNA; conditions = concentration not given, 2 h; how to read = reference: untreated cells; measurement = log2 fold change; result = 1.9
Structure (SMILES) = N#C[C@@]1(c2ccc3c(N)ncnn23)O[C@H](CO)[C@@H](O)[C@H]1O; system = beagle dog male; conditions = oral, 100 mg/kg/day, day 14, twice daily repeated dosing; measurement = Cmax; result = 10.8 µg/mL
Structure (SMILES) = COc1cc2c3c(n(CCCN4CCOCC4)c(=O)c2cc1OC)-c1cc2c(cc1C3=O)OCO2; system = beagle dogs, female, plasma; conditions = oral, 1720 mg/m^2, gelatin capsules; measurement = Cmax; result = 0.18 µg/mL
Structure (SMILES) = COc1ncc(-c2nc3c(n2C(C)C)[C@H](c2ccc(Cl)cc2)N(c2cc(Cl)cn(C)c2=O)C3=O)c(OC)n1; test = LC-MS/MS; system = human, plasma; conditions = oral, 200 mg, cycle 2 day 1, high-dose arm; measurement = Cmax; result = 1.31 µg/mL
Structure (SMILES) = CCN1CCN(Cc2ccc(Nc3ncc(F)c(-c4cc(F)c5nc6n(c5c4)[C@H](C)CCC6)n3)nc2)CC1; system = human, plasma; conditions = 400 mg multiple dosing, mean; measurement = Cmax; result = 0.355 µg/mL
Structure (SMILES) = Cc1nc(-c2cnc(NC(C)C)n(C)c2=O)ccc1Oc1ccnc(-c2cnn(C)c2)c1; system = Beagle dog, male, plasma; conditions = oral, 3 mg/kg, crossover study, mean; measurement = Cmax; result = 1.3 µg/mL
Structure (SMILES) = Cc1cc(Nc2ncnc3ccc(NC4=NC(C)(C)CO4)cc23)ccc1Oc1ccn2ncnc2c1; tested on = Cytochrome P450 2C8 (CYP2C8, Homo sapiens, UniProt P10632); system = human, plasma; conditions = oral, 300 mg single, day 1, median; measurement = AUC extrapolated fraction; result = 1.4%
Structure (SMILES) = COc1ccc(C[C@@H](C)[C@@H](C)Cc2ccc(OC)c(OC)c2)cc1OC; system = beagle dog male, plasma; conditions = oral, 100 mg/kg/day, day 28; measurement = Cmax; result = 1.44 ± 0.224 µg/mL
Structure (SMILES) = CC(C)(C)c1ccc(S(=O)(=O)/C=C/C#N)cc1; tested on = Toxoplasma gondii; test = parasite growth, luciferase reporter; system = HFF, tachyzoite; conditions = 72 h; measurement = EC90; result = 37.6 µM
Structure (SMILES) = N#C[C@@]1(c2ccc3c(N)ncnn23)O[C@H](CO)[C@@H](O)[C@H]1O; system = beagle dog, male, plasma; conditions = oral, 6.5 mg/kg, capsule; measurement = Cmax; result = 4.58 µg/mL

Excerpt of the above:
Structure (SMILES) = N#C[C@@]1(c2ccc3c(N)ncnn23)O[C@H](CO)[C@@H](O)[C@H]1O; system = beagle dog male; conditions = oral, 100 mg/kg/day, day 14, twice daily repeated dosing; measurement = Cmax; result = 10.8 µg/mL
Structure (SMILES) = Cc1cc(Nc2ncnc3ccc(NC4=NC(C)(C)CO4)cc23)ccc1Oc1ccn2ncnc2c1; tested on = Cytochrome P450 2C8 (CYP2C8, Homo sapiens, UniProt P10632); system = human, plasma; conditions = oral, 300 mg single, day 1, median; measurement = AUC extrapolated fraction; result = 1.4%
